Measured values pooled from the literature.
Every numbered part comes from another study and shows a few of its results, in no order. Substitutions count along the parent as printed.

Series 1
Target: CCND1, cyclin fold, Cln2 fusion (human)
Technique: yeast growth competition, sequencing
Medium: yeast
Setting: weak parent motif
Baseline: not given
Direction: higher = stronger binding
Starting sequence: WEE1 docking peptide (human); HKTFRKLRLFDTP
Variant	normalised enrichment score
HKTFRKLRFFDTP [L9F]	-0.204
HPTFRKLRLFDTP [K2P]	0.208
YKTFRKLRLFDTP [H1Y]	0.223
HKTFRKLRLFHTP [D11H]	-0.719
HKTFYKLRLFDTP [R5Y]	-0.181
HKTFRKLRLFDFP [T12F]	0.0126
HKTFRKLRSFDTP [L9S]	0.234
HKVFRKLRLFDTP [T3V]	1.35
HKTFRYLRLFDTP [K6Y]	0.692
HKTFRKLRLFDRP [T12R]	0.319
HSTFRKLRLFDTP [K2S]	0.207
HKTRRKLRLFDTP [F4R]	0.267
HKSFRKLRLFDTP [T3S]	-1.5
HKFFRKLRLFDTP [T3F]	0.0579
HKTFRKLRLFDNP [T12N]	0.837
HKTKRKLRLFDTP [F4K]	0.204

Series 2
Target: CREB3L1, bZIP domain (human)
Technique: DHFR protein complementation
Medium: yeast
Setting: single substitutions, most at no-binding floor
Baseline: wild-type JUN-FOS pair
Direction: higher = stronger binding
Starting sequence: JUN, bZIP domain (human); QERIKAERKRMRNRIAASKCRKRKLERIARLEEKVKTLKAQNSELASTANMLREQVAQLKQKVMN; partner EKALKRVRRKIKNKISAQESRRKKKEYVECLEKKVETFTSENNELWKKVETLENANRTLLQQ
Variant	binding fitness
S43F	-1.33 natural log
E33M	-1.19 natural log
A29T	-1.42 natural log
E33T	-1.4 natural log
L59P	-1.42 natural log
T37G	-1.41 natural log
S47G	-1.37 natural log
S47V	-1.36 natural log
I28D	-1.52 natural log
Q55H	-1.34 natural log
L31W	-1.47 natural log
A57W	-1.44 natural log
L59G	-1.48 natural log
N42G	-1.46 natural log
R30L	-1.38 natural log
A49N	-1.54 natural log

Series 3
Target: ABI1, truncated, D143A, DHFR fusion (Arabidopsis thaliana)
Technique: DHFR PCA, deep sequencing
Medium: yeast
Setting: methotrexate growth selection, single substitutions
Together with: (+)-ABA 0.11 µM
Baseline: wild-type fitted maximum
Direction: higher = stronger binding
Starting sequence: PYL1, truncated, DHFR fusion (Arabidopsis thaliana); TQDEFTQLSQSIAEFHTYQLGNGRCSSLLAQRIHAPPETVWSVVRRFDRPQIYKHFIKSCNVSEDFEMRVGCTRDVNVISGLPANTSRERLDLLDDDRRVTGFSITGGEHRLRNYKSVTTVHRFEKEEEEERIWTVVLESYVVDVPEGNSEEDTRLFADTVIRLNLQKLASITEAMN
Variant	relative binding score [%]
N149T	49
E127G	44.6
E131V	34.7
E64D	49.8
D153P	0.847
D159A	-0.917
D48W	-6.91
F103N	-10.2
L28H	0.341
T135D	0.1
V43E	-1.59
N22K	48.9
A175E	34.8
L8E	6.39
V44K	-0.41
E125R	32.2
E67C	14.8
L28W	1.49
R32M	30.5
Y141S	3.22
D144A	-1.44

Series 4
Target: RNA binding protein fox-1 homolog 2, RRM domain, GST-SBP tag (RBFOX2, Homo sapiens, UniProt O43251-10, residues 100-194)
Technique: RNA Bind-n-Seq
Molecule type: RNA
Medium: in vitro
Concentration: 365 nM
Setting: natural RNA segment, single round, ends assumed
Baseline: no-protein control
Direction: higher = stronger binding
Shared flanks, not repeated: GGGAGUUCUACAGUCCGACGAUC … UGGAAUUCUCGGGUGCCAA
Construct (chain): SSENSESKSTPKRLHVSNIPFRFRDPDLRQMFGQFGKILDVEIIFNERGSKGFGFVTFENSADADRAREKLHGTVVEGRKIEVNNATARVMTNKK
Sequence	RBNS enrichment (R)
UAAGGAAUUCUUGGGUAGGGCACAGGGAUGGGGUUGCCAGCUUCUUCUUUCUUGUGGUGGGGCUCAGACACCAGCAACAGCCUCUUGGGAUGCCCCAAGUUGUUUCCGGU	0.361
AGGGUCAUUUGAAAGCUUCAGCCUCAGAAUGUGACCUUUAGUCAGGGCUGCAGAUAAAAAUAGGCAGGAAUCAAAUGACUAAGAAUGUAAUAGGGAAGAAGUGCCCUGCC	3.67
GAGGCGUGCCAGCAAGGCCAGGGAUGGCCGGAGGGCUGCGGGCUCCGCUAUUUGCAAAUGGAUGCCCCAGUGUCCGGGAUGUGUGGCCAGCUGCUGCAGGCAGGACUCCA	0.813
CCUCGGGGUCAGGGCCCGGCAUGGCCAAGCCCUGGCCCAUCUGUGUCUGUGUCACUCCCCUCCCUUCCAGACUGGGCCUGGCUGCUGGGAUCCCUCUCAUGCGGUGGGUC	0.273
UCUCACGUUCUCUAUAAUAGAAACAGCAGGUCUUGUCAGCUCCUUGUGUGGCUGAUGUGUCUGGAAAUGAUGUAGUUCAGGAAAGCAUUUUUUUUUUCUUUGAACCUUAA	0.735
CCACUGUCUCCCCAUCCUUCCACCUACUUGUGGCGAUCUGAGUACUCUACUCUUGCUCAAGAAGUAAUACGACAAUCAGAAUACAAACCAGUAAGGCAACACGAAUAAAC	0.5
AGAUCCUGCUUCCAUCUCCAGCUUCUAGCACUCUCCUAGAGAGGGACAGACUGGAGCCAUGGCCUUAGGCCAUAUAGCCUUACUAUCAAGUGUCUUCCUCCACGCGGAUU	0.206
AGAAUUGCCCUAUACCUGAGCCUCAACCUUCUGGGGGAAGGGAACUAGAUAACAUGCUUUGUGUGUAUCUGUGUAGUUCUGUGUUGCAGACGGAUGAUAUAUAAUGAUAA	0.451
UUGUACCCCCACCCCCUGCACCUCCCUGCGAUCUGGCUGGCUUGGAUCUCAUUUUUUAACCCCUUCCUGUCUUGCCUGUCCCAUAGAUAAGGCCUGUGUGCUGCUCUCAU	1.44
AUCUUAAAACUACAAGUUGUAAGUAUUCUGAAAUUGGGAAACAUUUAUUUUAAAUGCAAUCAGGUAGUGUUGCUUUUUACAGCAUAAUAAAUAUAUGUAUCAAAAAAAAA	0.438
ACUCACAACCCCGAUCUGCAAGGUAUCGUUAAGGAAUGAGUAUCUUCAGUGUGGCAAAGGAGUAGUGUAGUUCCCUCCACAGGCCCUGUCGUAAUAAAAGCCUCAGUGCA	0.529
CUGUAAGUUCUAAAUGUGUACUCCUGAGGUUACAGUUUGGGUGUUAGGAGAAGUCUUUGUAGUCUCUUUAUGUUCAUAAUGAAUACUGUAUCAAUAUUUCCUAACAUGAA	0.54

Some of these lines once more (series 1):
Variant	normalised enrichment score
HKVFRKLRLFDTP [T3V]	1.35
HKSFRKLRLFDTP [T3S]	-1.5
HSTFRKLRLFDTP [K2S]	0.207
HKTFRKLRSFDTP [L9S]	0.234
YKTFRKLRLFDTP [H1Y]	0.223
HKTRRKLRLFDTP [F4R]	0.267
HKTFRKLRLFHTP [D11H]	-0.719
HKTKRKLRLFDTP [F4K]	0.204
HKTFRKLRLFDRP [T12R]	0.319
HKTFRKLRFFDTP [L9F]	-0.204
